Published values of several laboratories.
Numbered parts are unrelated; each lists some results of a single study. “And” joins repeats or separate records; there may be more than shown. In brackets after ≈: the same amount, converted by molar mass.

Block 1 — organism: Staphylococcus aureus; strain: USA300
SMILES: CCCCC[C@@H](O)CC(=O)N[C@H]1COC(=O)[C@H](CO)NC(=O)[C@H](Cc2ccccc2)NC(=O)[C@@H](Cc2c[nH]c3ccccc23)NC(=O)[C@@H](C(C)O)NC(=O)[C@H](CC(N)=O)NC(=O)[C@@H](C(C)C)NC(=O)[C@H](CC(C)C)NC(=O)[C@@H](Cc2ccc(O)cc2)N(C)C(=O)CNC(=O)[C@H](CO)NC(=O)[C@@H](CC(N)=O)NC1=O (stereo partly shown)
setting	MIC [µg/mL]
with: menaquinone 8 µg/mL	> 64
with: menaquinone 2 µg/mL	32 (≈ 21.2 µM)
with: menaquinone 1 µg/mL	16 (≈ 10.6 µM)
with: menaquinone 0.0625 µg/mL	8 (≈ 5.29 µM)
with: menaquinone 0.5 µg/mL	16 (≈ 10.6 µM)
with: ubiquinone 4 µg/mL	4 (≈ 2.64 µM)
with: menaquinone 64 µg/mL	> 64

Block 2 — organism: Arabidopsis thaliana; strain: Col-0; setting: seed germination, single repetition
SMILES: C=CCN1C(=O)C(O)(C(=O)O)Oc2cc(F)ccc21 (stereo not shown)
setting	hypocotyl length
6.25 µg/mL	2.01 cm and 2.02 cm and 2.03 cm and 2.09 cm
3.125 µg/mL	2.07 cm and 2.09 cm and 2.1 cm and 2.03 cm
100 µg/mL	1.37 cm and 1.35 cm and 1.36 cm and 1.32 cm
12.5 µg/mL	1.8 cm and 1.78 cm and 1.82 cm and 1.87 cm and 1.79 cm
50 µg/mL	1.57 cm and 1.54 cm and 1.52 cm and 1.58 cm and 1.59 cm

Block 3 — observed: metabolic stability; matrix: liver microsomes
SMILES: Cn1cc(-c2cccc(CN3CCC4(CC3)COc3c4ccc4c3CN([C@H]3CCC(=O)NC3=O)C4=O)c2)cn1
test system	setting	compound remaining [%]
monkey	5 min	92.7
monkey	0 h	100
rat	45 min	76.4
rat	5 min	90.7
mouse	5 min	99.6
rat	0 h	100
human	15 min	96.5
mouse	0 h	100
rat	30 min	83.1
monkey	45 min	42.4

Block 4 — cell line: HCC1569; method: in-cell western; measured: CDK1 phospho-Thr14
SMILES: Cc1ccc(O)c(C)c1-c1cnc2[nH]c(-c3cnc(N4CCC(CN5CCN(c6ccc(C(=O)NC7CCC(=O)NC7=O)c(F)c6)CC5)CC4)nc3)cc2c1C#N (racemic)
setting	pCDK1 (Thr14) level
10000 nM	128% and 134%
123.46 nM	45.6% and 41%
1111.11 nM	113% and 122%
41.15 nM	17.4% and 25.3%
370.37 nM	61.8% and 63.3%
3333.33 nM	137% and 140%

Repeated from above (block 2):
setting	hypocotyl length
12.5 µg/mL	1.8 cm and 1.78 cm and 1.82 cm and 1.87 cm and 1.79 cm
100 µg/mL	1.37 cm and 1.35 cm and 1.36 cm and 1.32 cm
50 µg/mL	1.57 cm and 1.54 cm and 1.52 cm and 1.58 cm and 1.59 cm
6.25 µg/mL	2.01 cm and 2.02 cm and 2.03 cm and 2.09 cm
